Measured values of several laboratories.
A part holds a random share of what one study measured. ± gives the spread as reported.

Set 1 — organism: SARS-CoV-2 Wuhan spike VSV pseudovirus; effect on: pseudovirus entry; concentration: 10 µM; endpoint: inhibition
CC(C)c1ccc(C2C3=C(COC3=O)Nc3c2c(=O)n(C)c(=O)n3C)cc1 (centres unmarked): 95%
CCOC(=O)N1CCN(C(=O)Cn2ncc(Cl)c(Cl)c2=O)CC1: 54%
CN(Cc1cnccn1)C(=O)c1ccc(CSc2ncccn2)o1: 99%
COc1ccc(CN2CCN(Cc3nc4ccccc4s3)CC2CCO)cc1C (centres unmarked): 86%
C=CCN1CC(C(=O)NCc2ccc(S(=O)(=O)N(C)C)cc2)CC1=O (centres unmarked): 57%
O=c1c(Cl)c(Cl)cnn1Cc1ccc([N+](=O)[O-])cc1: 99%
Cc1cc2oc(=O)cc(Cn3ncc(Cl)c(Cl)c3=O)c2cc1C(C)C: 86%

Further values, each from its own experiment
rep papain-like protease: Replicase polyprotein 1ab, papain-like protease (rep, Severe acute respiratory syndrome coronavirus 2, UniProt P0DTD1)
rep nsp12 RdRp: Replicase polyprotein 1ab, nsp12 RdRp (rep, Severe acute respiratory syndrome coronavirus 2, UniProt P0DTD1)
rep nsp14: Replicase polyprotein 1ab, nsp14 (rep, Severe acute respiratory syndrome coronavirus 2, UniProt P0DTD1)
CCC(CC)[C@H](NC(C)=O)[C@@H]1[C@H](O)[C@@H](C(=O)O)C[C@H]1N=C(N)N  IC50 (neuraminidase (Influenza B virus, UniProt A0A1S5RAG6, G145E)): 7.2 ± 0.8 nM
CC(C)(C)NC(=O)N[C@H](C(=O)N1C[C@H]2[C@@H]([C@H]1C(=O)NC(CC1CCC1)C(=O)C(N)=O)C2(C)C)C(C)(C)C (some centres unmarked)  activity (rep papain-like protease; concentration not given, C111S mutant; reference: positive control): 23.3%
CS(=O)(=O)c1cccc(CNc2nc(Nc3ccc4c(c3)CCC(=O)N4)ncc2C(F)(F)F)c1  BLI response (rep nsp12 RdRp; binding, biolayer interferometry; concentration not given): 0 nm
Nc1ncnc2c1ncn2[C@@H]1O[C@H](CSCC[C@H](N)C(=O)O)[C@@H](O)[C@H]1O  ΔTm (rep nsp14; thermal shift; 7.81 µM): 4.7 °C
Cc1ccc2c(c1)C1(CCN(CCc3nc(-c4ccccc4)oc3C)CC1)OC(=O)N2  BLI response (rep nsp12 RdRp; binding, biolayer interferometry; concentration not given): 0.01 nm
Cn1c[n+]([C@@H]2O[C@H](COP(=O)(O)OP(=O)([O-])OP(=O)(O)OC[C@H]3O[C@@H](n4cnc5c(=O)[nH]c(N)nc54)[C@H](O)[C@@H]3O)[C@@H](O)[C@H]2O)c2nc(N)[nH]c(=O)c21  ΔTm (rep nsp14; thermal shift; 500 µM): 2 °C
CC(C)C[C@H](NC(=O)CNC(=O)c1cc(Cl)ccc1Cl)B(O)O  activity (rep papain-like protease; concentration not given, C111S mutant; reference: positive control): 25.7%

Excerpt of the above (set 1):
O=c1c(Cl)c(Cl)cnn1Cc1ccc([N+](=O)[O-])cc1: 99%
Cc1cc2oc(=O)cc(Cn3ncc(Cl)c(Cl)c3=O)c2cc1C(C)C: 86%
